# Measured values collected from several papers.
# Each numbered part is a random draw from the data of one study; scales do not carry over between parts. Changes are numbered by the printed parent chain.

# Study 1
# Target: Histone acetyltransferase KAT6A, winged helix 2, GST fusion (KAT6A, Homo sapiens, UniProt Q92794, residues 85-181)
# Method: protein binding microarray
# Form: double-stranded DNA, one strand shown
# Matrix: in vitro
# Tested at: not given
# Setting: 8-mer, flanks averaged, mean of 2 arrays, mostly near background
# Relative to: not given
# Reading: higher = stronger binding
# Target sequence (chain): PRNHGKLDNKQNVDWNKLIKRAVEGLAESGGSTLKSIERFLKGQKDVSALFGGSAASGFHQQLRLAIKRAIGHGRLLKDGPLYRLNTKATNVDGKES
Oligonucleotide,E-score
ATCCAATC,-0.0713
CAACTTAA,0.0658
AGGATAGG,-0.0922
GACGGTTA,-0.107
CTGTCCTC,-0.0149
CTGACACA,0.0907
AACTGAAT,-0.273
AGCATTAC,-0.136
AGTATCGA,0.0678
ACTGGTAC,-0.143
CTTTTTTC,0.0622
CATACCGA,-0.063
ACAGTCCA,-0.151
AACTCACG,0.148
ACTGGTAA,0.0553
CGGTACAC,0.0749
ACTGATAA,-0.0653
ATTAAATA,0.12
CACCCGTA,-0.121
AGACTGCA,-0.214
CATGGAGG,-0.0935
TCTTGGAA,0.161
ACAAAGGC,-0.101
CGGATTTA,0.0251
GACATGGC,-0.0737

# Study 2
# Target: Sal-like protein 4, full length isoform A (SALL4, Homo sapiens, UniProt Q9UJQ4, residues 1-1053)
# UniProt Q9UJQ4, sequence (whole entry, looked up): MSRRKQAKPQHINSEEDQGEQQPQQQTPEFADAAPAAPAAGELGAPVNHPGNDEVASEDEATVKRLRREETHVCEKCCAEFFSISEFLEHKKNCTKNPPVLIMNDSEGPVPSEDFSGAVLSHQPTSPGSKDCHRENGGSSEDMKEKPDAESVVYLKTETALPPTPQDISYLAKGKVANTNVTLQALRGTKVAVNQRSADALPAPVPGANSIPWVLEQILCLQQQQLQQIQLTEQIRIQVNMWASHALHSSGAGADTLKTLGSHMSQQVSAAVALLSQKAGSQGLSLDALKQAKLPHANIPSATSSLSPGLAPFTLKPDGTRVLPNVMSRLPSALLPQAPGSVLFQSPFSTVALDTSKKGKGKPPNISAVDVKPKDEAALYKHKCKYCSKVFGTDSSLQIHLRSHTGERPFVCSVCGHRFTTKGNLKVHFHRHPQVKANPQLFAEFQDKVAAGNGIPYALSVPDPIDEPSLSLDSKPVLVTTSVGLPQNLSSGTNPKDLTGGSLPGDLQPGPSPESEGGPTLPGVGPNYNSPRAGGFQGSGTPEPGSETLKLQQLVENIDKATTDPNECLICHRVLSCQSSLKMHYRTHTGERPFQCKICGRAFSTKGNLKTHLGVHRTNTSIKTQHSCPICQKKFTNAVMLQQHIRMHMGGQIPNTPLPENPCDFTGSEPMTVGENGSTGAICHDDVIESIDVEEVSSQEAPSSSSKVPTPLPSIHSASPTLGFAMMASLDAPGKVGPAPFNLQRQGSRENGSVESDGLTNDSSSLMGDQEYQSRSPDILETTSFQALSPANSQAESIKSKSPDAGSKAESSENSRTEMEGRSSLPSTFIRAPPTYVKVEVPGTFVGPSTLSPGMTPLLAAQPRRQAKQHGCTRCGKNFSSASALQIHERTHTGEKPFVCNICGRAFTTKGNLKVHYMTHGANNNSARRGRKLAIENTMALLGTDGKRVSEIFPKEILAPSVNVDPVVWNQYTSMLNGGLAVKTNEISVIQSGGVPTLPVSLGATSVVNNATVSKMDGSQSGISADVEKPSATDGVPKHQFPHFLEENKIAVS
# Method: universal PBM
# Form: double-stranded DNA, one strand shown
# Matrix: in vitro
# Tested at: 600 nM
# Setting: 8-mer, flanks averaged, mean of replicates
# Reading: higher = stronger binding
Oligonucleotide,E-score
AGTACTTG,0.187
CCTGGTGA,-0.209
CATCCACG,-0.0421
AAGGGAGT,-0.238
ACGAATCG,0.0295
TCTTCCCA,-0.139
CGCACAAC,0.00093
CTCGTAGA,-0.0784
CAGTTGAC,-0.0312
AAGCCAGC,-0.227
CCTACTCC,-0.106
CCACACGG,-0.237
ACCCAATG,-0.115
ATCAGACA,0.0833
AGCGGAAG,-0.153
CCGCCGTA,-0.26
ACAACTTA,0.19

# Study 3
# Target: RING finger protein unkempt homolog, zinc fingers 1-6, GST-SBP tag (UNK, Homo sapiens, UniProt Q9C0B0, residues 30-357)
# UniProt Q9C0B0, sequence (30-357, looked up): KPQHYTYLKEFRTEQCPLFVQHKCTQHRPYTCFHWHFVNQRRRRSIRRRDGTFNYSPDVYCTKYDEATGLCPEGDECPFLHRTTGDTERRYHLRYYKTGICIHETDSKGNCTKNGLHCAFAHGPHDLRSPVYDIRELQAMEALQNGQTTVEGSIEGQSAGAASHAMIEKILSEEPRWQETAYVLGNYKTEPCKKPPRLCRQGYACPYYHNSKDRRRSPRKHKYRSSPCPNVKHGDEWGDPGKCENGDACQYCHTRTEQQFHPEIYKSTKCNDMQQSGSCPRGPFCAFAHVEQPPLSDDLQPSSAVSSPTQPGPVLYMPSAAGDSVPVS
# Method: RNA Bind-n-Seq
# Form: RNA
# Matrix: in vitro
# Tested at: not given
# Setting: RNA with constant flanks, ends assumed
# Relative to: input RNA pool
# Reading: higher = stronger binding
Oligonucleotide,bound/input enrichment
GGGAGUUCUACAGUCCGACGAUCUAUACUUCAUUGGGACCACGAGUAACUGAUGUAGCCACAUAAGGAGACAUAGGUUAUAAACCCGUUAUCUUUUAAAAGGCUCAGCAACACAACUCUUGAAAUGCUUAUCAGGAUAAUGGUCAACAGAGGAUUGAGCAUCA,0.144 ratio
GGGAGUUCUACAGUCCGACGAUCAGGACCUAUUCCAAUAGGCUCUUGGUGUUUCCCAUAUCAAGAUUUCUGCUAGCUAAUGCACCGAGGGAAUACUGUCUAAAAAUAGACCCUUUCUUCCCAAAGGUUGGGAGGUGGGACCUGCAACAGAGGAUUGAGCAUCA,0.324 ratio
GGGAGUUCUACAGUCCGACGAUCAAACACGAGCGGAUUGAAAACGACGUGGCCACCAUCCUGUCUCGCCGCAUUGCUGUGGAGUACCGCGACUCGGAAGAUGACUCGGAGUUCGAUGAAGUAGACUGGCUGGAGUAAGAAAGCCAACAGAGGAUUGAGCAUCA,0.168 ratio
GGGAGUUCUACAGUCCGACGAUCGUACUGCUGGUCCUGUACCAGAAACAUUUUCUUUUAUUGUUACUUGCUUUUUAAACUUUGUUCCGCCACUUAAAAUCUGCUUAUGGCACAAUUUGCCUCAAAAUCCAUUCCAAGUUGUAUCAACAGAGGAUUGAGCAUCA,0.514 ratio
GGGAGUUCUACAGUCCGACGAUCGAAUCAACCAAUGAACAAUUACAGAUACAUUAUAAGGUAUGCUAUGCACGUGUUCUUGAUUACCGAAGAAAAUUCAUUGAAGCUGCACAAAGGUACAAUGAGCUCUCUUACAAGACAAUACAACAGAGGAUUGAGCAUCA,0.186 ratio
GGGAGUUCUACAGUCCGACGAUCGUAGUUUGUUGUUUAAAAUAAUGUAAUCAUCAAAAUGAUACACAUGUUACACUACUAUUAACCCGGCUUCAAUAUAUCAGUGUUUAUUUCAUUGUGUUAAAUGUAUACUUGUAAAUAAAACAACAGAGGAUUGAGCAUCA,0.373 ratio
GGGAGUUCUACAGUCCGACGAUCGGGAGGAAUGAAUUUAUCUAGCAAGCUGGCCCAGCUCACUUGUCAUGGCAAUCUUUGCCACCGCUUUCAGUCUUUCAACACUUCCUACACAGAUACAGGAUUAUGGGGACUGUAUAUGGUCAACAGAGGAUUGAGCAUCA,0.287 ratio
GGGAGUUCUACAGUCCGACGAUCAUAAGAAAUUUUCUGUGAAAUAUCCUUCCAUUGUUUAAGCUUUUGUUUUGGUCAUCUUUAUUCCGUUUGCAUGAAGUUGAAAAUUAAGGCAUUUUUAAAAAUUUUACUUCAUGCCCAUUUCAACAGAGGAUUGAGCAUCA,0.411 ratio
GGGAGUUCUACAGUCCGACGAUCAGUCUUCAGGAUACUGUAGCUUCCUCUGUAGAGAACUUCGUUUUAAUAGACACUGUACAACCGUGGUGUUUUACUUCACUGAAUCACACCUUUGUUCUGAAAGUGUGAUACAGAGUAUAACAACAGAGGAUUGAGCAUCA,1.91 ratio
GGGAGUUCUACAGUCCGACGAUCACAGCUGAUUCACUCAUUGGGAGAGCUGCACAUAUAGCUGUUCUUGAUUCGGAAAUAUUUUCCGAGAAAUUCUUUCUGGUUGCUGCCCUCAAAUAUUUCCAAUAGUAUAAAAGCAUUGUUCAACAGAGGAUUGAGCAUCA,1.04 ratio
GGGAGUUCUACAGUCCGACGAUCGUCAUUGUCAUUCCGCAGUCCUCUCUCUCCACCAAUGCUGUUGUGGUGGAUCUUGGGCUAAUCCGAGUUCACAAUCGGUUCAGUCUGGUGUCUGGAGAAGACACUGCAAAUCCUCCAGUGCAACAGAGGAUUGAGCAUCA,0.103 ratio

# Study 4
# Target: RNA binding protein fox-1 homolog 2, RRM domain, GST-SBP tag (RBFOX2, Homo sapiens, UniProt O43251-10, residues 100-194)
# Method: RNA Bind-n-Seq
# Form: RNA
# Matrix: in vitro
# Tested at: 365 nM
# Setting: natural RNA segment, single round, ends assumed
# Relative to: no-protein control
# Reading: higher = stronger binding
# Residues (chain): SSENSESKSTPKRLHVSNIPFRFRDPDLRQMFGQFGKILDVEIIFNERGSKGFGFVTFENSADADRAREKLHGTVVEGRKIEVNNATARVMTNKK
Oligonucleotide,RBNS enrichment (R)
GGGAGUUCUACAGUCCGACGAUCCCCAAGGAUAAUUAAUUAUCCCACACAGUGAGAGCAGUGGCUUGCUUAGCUGACUGUGCCCACGCCAGUCUUCAGGCACUGCAAGCAGCCGCUGGUCCCUGCUAUCCGAAUGGAAUUCUCGGGUGCCAA,0.429
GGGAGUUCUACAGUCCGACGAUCGUUCUUUUUGCAUUUAAUGCCCAUCACUAUCCUCAUCCCAAAUAAAAUCCAUUCAUACUAGUGGACAUCAUUUCUAAGUUUCCUUGCUACUGUUACACCCUUUGAACGGAUGGAAUUCUCGGGUGCCAA,0.854
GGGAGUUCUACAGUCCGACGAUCCUUGCUUCUCUUCACAGCCAUAGGAUAAUGAAUACUCAGGCCUGUUUGUUAAAAUGCUAUUUUUAAAACCAUAUGAAGGUAGGAUAAUUAAUUACAAGUCCACAUCAUGAUGGAAUUCUCGGGUGCCAA,0.597
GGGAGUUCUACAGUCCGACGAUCCACCCAUUGAACAGGAUGUUAAUGAGAACACACUGAAGAACUUGGAGUCGUAUGACAGCCACAAGGCUGGAAAUCACAAUGCACUUGCUGCCGUUCUGACCUGGGACUGGUGGAAUUCUCGGGUGCCAA,0.586
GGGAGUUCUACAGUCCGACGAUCCAGUGACGAAUACGUGUCAUGAUUUCAUCUCACCCAGUCACCGAGUGGAAAGCAAGCCGAGGUGUAAACUGCUGUACAUAGCUUGAAGAAAUACAAAUGAAGUCACGUUUUGGAAUUCUCGGGUGCCAA,0.365
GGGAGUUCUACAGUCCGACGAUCGUGAGUCUGAGCCGGAAGGGGUACGUGGUGGGCGCCCCUCAUUGUGGCUGGGGAGACCUCAUACCCCAUCGCCCACCCCCGUCCUCCUGGUCAUUUCCUCCCAGACACUGUGGAAUUCUCGGGUGCCAA,0.497
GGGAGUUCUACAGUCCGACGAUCAAAAACCAAUACAGUAUAACAACUAUUUACAUAGUGCUUACAUUGUAUUAGGUGUUAUAAGCAAUCUAGAGAUGAUUUAGCAAGUAUACAGGAGGAUGUGCCUAGGUUAUUGGAAUUCUCGGGUGCCAA,0.471
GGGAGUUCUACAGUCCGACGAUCCCUCCAGGCACGUCCCGGACCUGUGGGGCCCCAGAGAGGGGACAUUUCCCUCCUGGGAGAGAAGGAGAUCAGGGCAACUCGGAGAGGGCUGCGAGCAUUUCCCUCCCGGGUGGAAUUCUCGGGUGCCAA,0.348
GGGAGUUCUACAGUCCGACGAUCCGGGUUUCCUGGGUCCCCUCUCCAGCAAGCCUCCACCAGCAAGCUCGGCCCAGAGCUUCCCUUCCGGCUGGCUCUGAACCGUGCGUGGUGCCUACAGCCUGCAGUCUGGAUGGAAUUCUCGGGUGCCAA,0.196
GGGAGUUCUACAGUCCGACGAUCGUGAUGAUGAUGUGAAUUGUUUCCAGUGAGGGGAUUGAGUCAAAACUUGGAUCUCAGGUACCUCAAUUUUUCCCCCAAUUUCUGGCUACUACUAAAAGCCAGAAAGAACAUGGAAUUCUCGGGUGCCAA,0.349
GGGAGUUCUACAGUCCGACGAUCCAACAAGAUAAUUAAAUAUCUUGGUGUCUUGUUUCUAUUGUGUGGCUUUUUAAAAAUGACAAAUAUGUACUGUGUUGUGAUAAAAAGUAUUUUAUUUGUUUAAUGAUAUGUGGAAUUCUCGGGUGCCAA,0.928
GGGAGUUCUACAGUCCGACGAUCAGUGAAACGCUUUGUAAGGAGGCAUCUGGGUAAUUAUGCAAAUAAGUUUGUGAUAAUUGCUCCAGUUCUACAAACAACAGAAUUUUAAAUAGAGGAAGUGGAUAAAGGAGUGGAAUUCUCGGGUGCCAA,0.299

# Study 5
# Target: CCND2, cyclin fold, Cln2 fusion (human)
# Method: yeast growth competition, sequencing
# Matrix: yeast
# Setting: weak parent motif
# Relative to: not given
# Reading: higher = stronger binding
# Parent: PKN2 docking peptide (human); VSAVQKLDFSDTM
Change,normalised enrichment score
D11V,0.393
F9V,-0.0271
S10A,0.386
T12K,0.294
K6Q,0.332
V4G,-0.00341
S2E,0.02
K6V,0.282
M13P,0.239
V4I,0.761
T12D,0.677
D8L,0.302
D8N,0.231
F9E,0.141
A3G,0.19
D11G,0.49
V1I,0.486
D11L,0.647

# For quick reference, copied from above (study 1):
Oligonucleotide,E-score
CTGTCCTC,-0.0149
CTGACACA,0.0907
AACTGAAT,-0.273
AGCATTAC,-0.136
AGTATCGA,0.0678
ACTGGTAC,-0.143
CTTTTTTC,0.0622
